Results collected from several papers.
Parts stem from different laboratories: compare values within a part only. Changes are numbered by the printed parent chain.
Sequence of UniProt Q9Y385 (whole entry, looked up): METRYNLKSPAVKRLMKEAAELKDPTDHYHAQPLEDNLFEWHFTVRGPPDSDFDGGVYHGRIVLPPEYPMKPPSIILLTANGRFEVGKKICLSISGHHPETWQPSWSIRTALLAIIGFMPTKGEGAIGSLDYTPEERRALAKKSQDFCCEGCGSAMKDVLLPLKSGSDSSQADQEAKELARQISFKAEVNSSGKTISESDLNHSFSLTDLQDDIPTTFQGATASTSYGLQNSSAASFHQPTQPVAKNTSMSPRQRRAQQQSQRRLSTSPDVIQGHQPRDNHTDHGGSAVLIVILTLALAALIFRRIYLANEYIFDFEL
Sequence of UniProt P62253 (whole entry, looked up): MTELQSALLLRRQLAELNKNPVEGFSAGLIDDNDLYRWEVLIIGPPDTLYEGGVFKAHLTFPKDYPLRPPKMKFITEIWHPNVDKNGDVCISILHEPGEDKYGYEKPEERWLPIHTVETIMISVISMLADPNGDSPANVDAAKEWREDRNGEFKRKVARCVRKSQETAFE
Sequence of UniProt P68036 (whole entry, looked up): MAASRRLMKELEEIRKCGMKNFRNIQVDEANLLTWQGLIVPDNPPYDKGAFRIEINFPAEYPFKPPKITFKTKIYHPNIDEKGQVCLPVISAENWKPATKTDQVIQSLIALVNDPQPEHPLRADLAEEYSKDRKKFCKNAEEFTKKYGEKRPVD
Sequence of UniProt Q9C0C9 (whole entry, looked up): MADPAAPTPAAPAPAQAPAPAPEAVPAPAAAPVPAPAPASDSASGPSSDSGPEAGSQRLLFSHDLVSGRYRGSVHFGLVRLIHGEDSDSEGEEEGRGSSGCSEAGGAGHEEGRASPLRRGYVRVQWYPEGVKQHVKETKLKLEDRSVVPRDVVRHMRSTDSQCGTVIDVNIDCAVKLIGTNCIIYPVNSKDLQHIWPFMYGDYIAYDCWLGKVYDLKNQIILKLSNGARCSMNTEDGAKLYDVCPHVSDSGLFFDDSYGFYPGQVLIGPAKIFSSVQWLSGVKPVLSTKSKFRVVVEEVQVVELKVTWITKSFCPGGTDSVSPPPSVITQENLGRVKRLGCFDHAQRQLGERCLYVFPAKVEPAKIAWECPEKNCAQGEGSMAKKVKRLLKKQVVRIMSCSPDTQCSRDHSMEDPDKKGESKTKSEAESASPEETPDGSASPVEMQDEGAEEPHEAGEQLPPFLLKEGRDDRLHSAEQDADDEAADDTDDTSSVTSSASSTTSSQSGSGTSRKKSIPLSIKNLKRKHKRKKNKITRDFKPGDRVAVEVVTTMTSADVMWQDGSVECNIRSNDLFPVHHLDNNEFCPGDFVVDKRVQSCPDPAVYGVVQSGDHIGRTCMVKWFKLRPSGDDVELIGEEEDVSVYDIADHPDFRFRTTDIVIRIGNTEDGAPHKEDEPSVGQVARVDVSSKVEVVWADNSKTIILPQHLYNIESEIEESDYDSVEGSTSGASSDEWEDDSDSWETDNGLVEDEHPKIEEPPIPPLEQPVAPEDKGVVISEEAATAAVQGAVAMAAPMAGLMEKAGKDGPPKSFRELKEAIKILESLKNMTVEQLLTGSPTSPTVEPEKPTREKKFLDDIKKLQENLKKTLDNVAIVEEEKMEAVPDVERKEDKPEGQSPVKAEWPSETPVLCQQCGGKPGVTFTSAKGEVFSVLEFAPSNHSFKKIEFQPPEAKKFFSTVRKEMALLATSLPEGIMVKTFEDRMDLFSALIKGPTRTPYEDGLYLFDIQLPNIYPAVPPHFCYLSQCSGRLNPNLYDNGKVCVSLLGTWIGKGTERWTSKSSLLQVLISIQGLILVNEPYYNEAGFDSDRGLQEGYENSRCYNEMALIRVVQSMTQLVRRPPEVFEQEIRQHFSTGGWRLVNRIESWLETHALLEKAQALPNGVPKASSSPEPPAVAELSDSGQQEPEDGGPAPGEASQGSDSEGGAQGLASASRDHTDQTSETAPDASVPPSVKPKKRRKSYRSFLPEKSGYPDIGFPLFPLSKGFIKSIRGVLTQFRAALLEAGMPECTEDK
Sequence of UniProt Q969T4 (whole entry, looked up): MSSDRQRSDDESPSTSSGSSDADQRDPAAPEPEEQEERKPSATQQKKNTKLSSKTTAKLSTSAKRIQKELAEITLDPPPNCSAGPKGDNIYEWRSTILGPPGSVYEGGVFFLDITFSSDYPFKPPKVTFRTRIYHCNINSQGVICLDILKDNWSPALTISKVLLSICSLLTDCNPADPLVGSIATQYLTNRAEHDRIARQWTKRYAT
Sequence of UniProt Q9H832 (whole entry, looked up): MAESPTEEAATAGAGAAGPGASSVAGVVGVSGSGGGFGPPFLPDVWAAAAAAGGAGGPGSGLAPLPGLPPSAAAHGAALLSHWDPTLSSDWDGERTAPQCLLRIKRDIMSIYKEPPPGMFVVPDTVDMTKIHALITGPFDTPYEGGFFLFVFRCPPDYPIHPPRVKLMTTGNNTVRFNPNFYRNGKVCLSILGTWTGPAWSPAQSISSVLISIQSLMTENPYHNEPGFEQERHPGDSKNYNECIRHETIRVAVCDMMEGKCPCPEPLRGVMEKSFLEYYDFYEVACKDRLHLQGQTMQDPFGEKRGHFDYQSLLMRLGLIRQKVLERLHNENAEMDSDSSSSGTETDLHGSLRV
Sequence of UniProt Q16763 (whole entry, looked up): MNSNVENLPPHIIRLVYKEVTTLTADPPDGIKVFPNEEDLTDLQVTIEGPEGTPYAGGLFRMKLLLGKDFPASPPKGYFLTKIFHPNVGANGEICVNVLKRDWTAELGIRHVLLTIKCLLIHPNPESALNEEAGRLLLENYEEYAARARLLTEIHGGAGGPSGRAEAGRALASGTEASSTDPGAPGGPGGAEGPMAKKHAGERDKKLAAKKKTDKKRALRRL
Sequence of UniProt P63146 (whole entry, looked up): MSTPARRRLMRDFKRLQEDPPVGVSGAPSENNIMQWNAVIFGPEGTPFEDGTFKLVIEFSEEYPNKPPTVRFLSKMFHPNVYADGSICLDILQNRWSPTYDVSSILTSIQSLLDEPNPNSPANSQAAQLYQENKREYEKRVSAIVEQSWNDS
Sequence of UniProt Q9NPD8 (whole entry, looked up): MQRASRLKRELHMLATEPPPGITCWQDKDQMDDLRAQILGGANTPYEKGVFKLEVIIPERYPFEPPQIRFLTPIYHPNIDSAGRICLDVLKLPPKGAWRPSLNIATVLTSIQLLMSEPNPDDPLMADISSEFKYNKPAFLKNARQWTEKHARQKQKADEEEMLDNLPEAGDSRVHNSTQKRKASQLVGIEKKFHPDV
Sequence of UniProt Q7Z7E8 (whole entry, looked up): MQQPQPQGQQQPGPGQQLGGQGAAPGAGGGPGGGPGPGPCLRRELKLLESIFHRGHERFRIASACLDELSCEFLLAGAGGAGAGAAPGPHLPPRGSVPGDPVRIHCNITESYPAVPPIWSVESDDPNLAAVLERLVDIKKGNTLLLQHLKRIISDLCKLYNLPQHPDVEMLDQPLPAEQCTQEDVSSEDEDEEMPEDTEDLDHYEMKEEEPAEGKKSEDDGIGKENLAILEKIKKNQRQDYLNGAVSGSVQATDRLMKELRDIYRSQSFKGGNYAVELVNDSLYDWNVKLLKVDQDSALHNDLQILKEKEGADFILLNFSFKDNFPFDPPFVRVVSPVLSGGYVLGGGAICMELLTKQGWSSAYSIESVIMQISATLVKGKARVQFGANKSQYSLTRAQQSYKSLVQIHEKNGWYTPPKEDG
Sequence of UniProt Q712K3 (whole entry, looked up): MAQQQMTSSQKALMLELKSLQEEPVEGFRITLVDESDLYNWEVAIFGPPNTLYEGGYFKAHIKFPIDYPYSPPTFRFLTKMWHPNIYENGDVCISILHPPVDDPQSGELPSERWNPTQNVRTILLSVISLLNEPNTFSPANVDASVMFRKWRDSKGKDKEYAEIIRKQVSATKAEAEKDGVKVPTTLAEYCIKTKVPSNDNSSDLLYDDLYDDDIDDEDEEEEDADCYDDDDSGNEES
Sequence of UniProt P61081 (whole entry, looked up): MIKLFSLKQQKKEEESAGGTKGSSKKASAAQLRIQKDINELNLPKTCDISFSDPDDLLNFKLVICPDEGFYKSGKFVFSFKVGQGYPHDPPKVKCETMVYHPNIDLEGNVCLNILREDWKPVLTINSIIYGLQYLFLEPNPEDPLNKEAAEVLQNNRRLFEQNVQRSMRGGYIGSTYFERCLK
Sequence of UniProt P51668 (whole entry, looked up): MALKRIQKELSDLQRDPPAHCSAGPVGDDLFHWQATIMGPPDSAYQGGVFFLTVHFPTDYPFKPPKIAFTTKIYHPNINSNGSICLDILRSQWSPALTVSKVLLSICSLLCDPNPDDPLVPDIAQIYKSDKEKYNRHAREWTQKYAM

Study 1
Target: Centromere-binding protein 1, full length, N-terminal tag (CBF1, Saccharomyces cerevisiae, UniProt P17106, residues 1-351)
Sequence of UniProt P17106 (whole entry, looked up): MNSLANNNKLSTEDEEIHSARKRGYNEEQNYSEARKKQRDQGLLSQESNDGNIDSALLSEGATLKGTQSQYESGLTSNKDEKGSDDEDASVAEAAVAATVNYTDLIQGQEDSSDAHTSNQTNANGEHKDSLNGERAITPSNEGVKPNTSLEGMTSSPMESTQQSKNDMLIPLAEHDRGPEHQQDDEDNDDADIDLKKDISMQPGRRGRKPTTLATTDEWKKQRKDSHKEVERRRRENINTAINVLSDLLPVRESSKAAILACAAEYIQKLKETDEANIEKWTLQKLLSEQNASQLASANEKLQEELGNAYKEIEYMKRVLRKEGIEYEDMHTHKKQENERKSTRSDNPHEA
Technique: protein-binding microarray
Form: double-stranded DNA, one strand shown
Matrix: in vitro
Tested at: 0.8 µM
Notes: whole 60-bp probe, no competitor
Direction: higher = stronger binding
Shared flanks, not repeated: … GTCTTGATTCGCTTGACGCTGCTG
For `GAAGCTACTCCGGCCATCGTGGGTGACATTCGTTAG`, the fluorescence intensity was 486 a.u.
`CTAGTTACTAGTCTTAACATCATGTATAGTCTGTTC` gave a fluorescence intensity of 523 a.u.
`CTAAAACGCTTTGTGGGCATCAGGTTTAGATTATTC` has a fluorescence intensity of 491 a.u.
`GAAAGCGCTGCGAGGCACGTATCAGAAACAATGTAG` gave a fluorescence intensity of 513 a.u.
`GAACTTTTTCCAACGCGCATGACTAACCTACTATAG` gave a fluorescence intensity of 678 a.u.
`CTATACATCAAAATCCACATGCTCTACAATCAATTC` has a fluorescence intensity of 643 a.u.
`CTACATATTCATATGCACGTTCTTTTTTTAATTTTC` has a fluorescence intensity of 671 a.u.
`CTACCGATGGAATAGCACATGGTGATGGTACAATTC` has a fluorescence intensity of 684 a.u.
For `TGTACGAAGCTATACCACGTAATTATAGTAGTTAGG`, the fluorescence intensity was 531 a.u.
`CTACATTCACGTTAAAACGTGTATGTTCGAATATTC` has a fluorescence intensity of 614 a.u.
For `GAAGCCTCGGCCTGCCGCGTGGTGGTGGTAGTTTAG`, the fluorescence intensity was 502 a.u.
For `GAAACTGCACACACACACGTTTTATCTTTACGTTAG`, the fluorescence intensity was 615 a.u.
For `GAAAAACGTGAAAATATCCACGTGGAAGGTGAATAG`, the fluorescence intensity was 3520 a.u.
`CTAAACTTTTCAAATCACGGATCATTTTTCATTTTC` gave a fluorescence intensity of 680 a.u.
For `GAAGCATGACTAGATGTCACGAATGTTTTGGAGTAG`, the fluorescence intensity was 603 a.u.
The fluorescence intensity of `GAAAATGACTGTTATTTCCACGTGTCTTTCTATTAG` is reported as 2920 a.u.
With `GAAGATTGCAAATCAAACGTGTGGCTCCTCGAGTAG` the fluorescence intensity was 516 a.u.
The fluorescence intensity of `CTAAGTATCTTTGAGCACGTATCAGATAACTAATTC` is reported as 550 a.u.
`CTAGAGGTATGTCTATTGGTGACGCCTGGTCTGTTC` gave a fluorescence intensity of 516 a.u.
For `GAATGCTACCCAATTCACGTTGTCCATGGTTATTAG`, the fluorescence intensity was 721 a.u.
`GAATATTGTTATTCATTCGTGATAGCTGCCCCTTAG` gave a fluorescence intensity of 520 a.u.
For `GAATATAGTCAAAGTCACGCCTATACACTTAATTAG`, the fluorescence intensity was 896 a.u.
For `GAAAGGCCTGTGCAGCACGTGACCCACGCTTGGTAG`, the fluorescence intensity was 24200 a.u.

Study 2
Molecule: KITELNPHLMCVLCGGYFIDATTIIECLHSFCKTCIVRYLETSKYCPICDVQVHKTRPLL (BMI1 RING domain (UniProt P35226))
Technique: yeast two-hybrid
Matrix: yeast
Notes: mostly zero background
Reference: not given
Direction: higher = stronger interaction
BIRC6 UBC core domain (UniProt Q9NR09) — “lacZ reporter activity”: 0.
UBE2T UBC core domain (UniProt Q9NPD8) — “lacZ reporter activity”: 7060.
The “lacZ reporter activity” was 0 (UBE2B UBC core domain (UniProt P63146)).
UBE2Z UBC core domain (UniProt Q9H832) — “lacZ reporter activity”: 0.
For UBE2O UBC core domain (UniProt Q9C0C9): “lacZ reporter activity” read 0.
It gave 0 for “lacZ reporter activity” (UBE2S UBC core domain (UniProt Q16763)).
UBE2J1 UBC core domain (UniProt Q9Y385) — “lacZ reporter activity”: 0.
The “lacZ reporter activity” was 0 (UBE2E3 UBC core domain (UniProt Q969T4)).
It gave 0 for “lacZ reporter activity” (UBE2M UBC core domain (UniProt P61081)).
The “lacZ reporter activity” was 0 (UBE2R2 UBC core domain (UniProt Q712K3)).
The “lacZ reporter activity” was 0 (UBE2Q1 UBC core domain (UniProt Q7Z7E8)).
It gave 0 for “lacZ reporter activity” (UBE2D1 UBC core domain (UniProt P51668)).
UBE2I UBC core domain (UniProt P63279) — “lacZ reporter activity”: 0.
UBE2G1 UBC core domain (UniProt P62253) — “lacZ reporter activity”: 0.
For UBE2L3 UBC core domain (UniProt P68036): “lacZ reporter activity” read 0.

Study 3
Target: CCND3, cyclin fold, Cln2 fusion (human)
Technique: yeast growth competition, sequencing
Matrix: yeast
Notes: weak parent motif
Reference: not given
Direction: higher = stronger binding
Starting sequence: SCAPER docking peptide (human); SNARRSLNFGGST; partner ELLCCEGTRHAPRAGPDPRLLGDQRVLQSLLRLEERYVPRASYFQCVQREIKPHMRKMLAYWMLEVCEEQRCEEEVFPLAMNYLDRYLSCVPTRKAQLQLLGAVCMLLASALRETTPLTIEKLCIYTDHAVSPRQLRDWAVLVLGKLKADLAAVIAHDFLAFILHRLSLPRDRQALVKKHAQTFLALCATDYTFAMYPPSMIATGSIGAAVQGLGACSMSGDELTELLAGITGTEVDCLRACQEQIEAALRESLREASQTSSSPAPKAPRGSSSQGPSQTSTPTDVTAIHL
Under “normalised enrichment score”, `L7H` is recorded as 0.135.
`R5Q`: “normalised enrichment score” 0.0817.
`F9T`: “normalised enrichment score” 0.126.
`S1Q` — result for “normalised enrichment score”: 0.126.
For `S12P`, “normalised enrichment score” read 0.222.
For `R4Q`, “normalised enrichment score” read -0.0227.
For `G11N`, “normalised enrichment score” read 0.105.
`T13I` — result for “normalised enrichment score”: 0.164.
Under “normalised enrichment score”, `T13V` is recorded as 0.14.
`A3F` — result for “normalised enrichment score”: 0.135.
For `T13R`, “normalised enrichment score” read 0.131.
For `S6Y`, “normalised enrichment score” read 0.161.
`L7G` — result for “normalised enrichment score”: 0.127.
`G10R` — result for “normalised enrichment score”: 0.045.
For `A3P`, “normalised enrichment score” read 0.155.
For `R4M`, “normalised enrichment score” read 0.0938.
`S12T` — result for “normalised enrichment score”: 0.125.
Under “normalised enrichment score”, `R4F` is recorded as 0.0459.
`G10P`: “normalised enrichment score” 0.158.
`A3D`: “normalised enrichment score” 0.0642.
`G10Y`: “normalised enrichment score” 0.164.
`G11H` — result for “normalised enrichment score”: 0.147.
Under “normalised enrichment score”, `S1D` is recorded as 0.174.
Under “normalised enrichment score”, `A3Q` is recorded as 0.064.
`N8T`: “normalised enrichment score” 0.164.

Study 4
Target: ABI1, truncated, D143A, DHFR fusion (Arabidopsis thaliana)
Technique: DHFR PCA, deep sequencing
Matrix: yeast
Notes: methotrexate growth selection, single substitutions
Added: (+)-ABA 17 µM
Reference: wild-type fitted maximum
Direction: higher = stronger binding
Starting sequence: PYL1, truncated, DHFR fusion (Arabidopsis thaliana); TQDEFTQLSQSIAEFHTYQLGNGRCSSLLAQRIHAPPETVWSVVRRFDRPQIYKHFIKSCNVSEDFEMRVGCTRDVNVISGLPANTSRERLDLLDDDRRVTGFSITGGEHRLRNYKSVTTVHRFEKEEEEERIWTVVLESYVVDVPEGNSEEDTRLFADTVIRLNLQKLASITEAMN; partner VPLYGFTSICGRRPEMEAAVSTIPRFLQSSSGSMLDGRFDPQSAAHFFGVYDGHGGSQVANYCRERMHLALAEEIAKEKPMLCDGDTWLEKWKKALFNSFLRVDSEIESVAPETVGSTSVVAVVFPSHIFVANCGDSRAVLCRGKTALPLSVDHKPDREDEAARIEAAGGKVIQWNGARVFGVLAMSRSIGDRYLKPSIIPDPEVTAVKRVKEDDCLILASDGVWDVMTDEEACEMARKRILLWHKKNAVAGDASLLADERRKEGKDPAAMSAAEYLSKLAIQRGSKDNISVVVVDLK
`V137D`: “relative binding score” 0.302%.
For `E4V`, “relative binding score” read 87.5%.
For `T39C`, “relative binding score” read 78.5%.
`H110Q` — result for “relative binding score”: 14.4%.
`V100F` — result for “relative binding score”: 16.1%.
For `N165K`, “relative binding score” read 5.16%.
`P37W`: “relative binding score” 4.69%.
For `Q10G`, “relative binding score” read 86.1%.
`P36A` — result for “relative binding score”: 74.9%.
For `G23V`, “relative binding score” read 31.2%.
For `V161L`, “relative binding score” read 63.3%.
Under “relative binding score”, `E130C` is recorded as 87.1%.
`K54E` — result for “relative binding score”: -8.15%.
`W134R`: “relative binding score” 66.1%.
`H16M`: “relative binding score” 17.6%.
`G107N`: “relative binding score” 36%.
`K168R` — result for “relative binding score”: 80.3%.
For `R113Q`, “relative binding score” read 100%.
`V70E`: “relative binding score” 67.6%.
`Q10P` — result for “relative binding score”: 80.8%.

Study 5
Target: Interferon regulatory factor 7, full length, phosphomimetic (IRF7, Homo sapiens, UniProt Q92985, residues 1-503, S101K/S471D/S472D/S475D/S476D/S477D/S483D/S484D/S487D)
Technique: protein-binding microarray
Form: double-stranded DNA, one strand shown
Matrix: in vitro
Tested at: 250 nM
Notes: 60-bp whole probe
Added: salmon DNA 0.4 mg/ml
Reference: random background probes
Direction: higher = stronger binding
Shared flanks, not repeated: GCCTAGCAC … GTCTTGATTCGCTTGACGCTGCTG
Construct (chain): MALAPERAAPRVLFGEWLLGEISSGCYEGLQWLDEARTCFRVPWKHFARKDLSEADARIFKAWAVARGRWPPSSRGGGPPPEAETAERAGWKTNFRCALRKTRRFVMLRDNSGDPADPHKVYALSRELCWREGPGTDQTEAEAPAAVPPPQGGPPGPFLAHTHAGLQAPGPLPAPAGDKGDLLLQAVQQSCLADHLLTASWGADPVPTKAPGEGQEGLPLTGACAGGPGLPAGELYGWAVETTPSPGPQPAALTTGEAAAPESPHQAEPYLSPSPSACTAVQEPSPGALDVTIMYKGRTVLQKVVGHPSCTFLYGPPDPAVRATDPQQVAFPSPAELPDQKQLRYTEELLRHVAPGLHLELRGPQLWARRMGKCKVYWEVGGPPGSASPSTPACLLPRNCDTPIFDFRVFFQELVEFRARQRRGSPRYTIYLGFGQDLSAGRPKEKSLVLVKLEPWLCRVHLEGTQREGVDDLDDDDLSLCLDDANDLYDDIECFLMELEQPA
The log fluorescence of `TTAGGGTCCCTTTTCCTTTAGTGCTAG` is reported as 2.06 z-score.
`GGGCAGGAAACGGAGGACACGTGCTAG` has a log fluorescence of -0.456 z-score.
For `TTAGATATCAGTCTTGATTAGTGCTAG`, the log fluorescence was -0.159 z-score.
For `ACTCAGCTCCTCTTCCAGGCGTGCTAG`, the log fluorescence was -0.532 z-score.
For `TTAGATATCGACTATCGGTTAGTGCTA`, the log fluorescence was -0.054 z-score.
`TTAGGTAGCGGTTTCGGTTAGTGCTAG` has a log fluorescence of 7.8 z-score.
With `TGTTACATTTATATCTTTGCGTGCTAG` the log fluorescence was 0.603 z-score.
`TTAGGACTGGGTTTCTGTTAGTGCTAG` has a log fluorescence of 2.32 z-score.
`TTGGGTATCGGGTTTCGGTTAGTGCTA` has a log fluorescence of 6.55 z-score.
For `CTAGTTGTACTTTCTATCTCTGTGCTA`, the log fluorescence was 1.83 z-score.
`GACGAACTAAGTATCGAGACGTGCTAG` has a log fluorescence of 0.49 z-score.
The log fluorescence of `TTAGGTTTCGACTTTAGGTTAGTGCTA` is reported as 10 z-score.
For `AGTGTCTCCATCAGAGGAGAGTGCTAG`, the log fluorescence was -0.437 z-score.
For `TTAGGTTTCGGACTGCGTTAGTGCTAG`, the log fluorescence was 4.81 z-score.
For `CCCAATCTCTCTTCACATATGTGCTAG`, the log fluorescence was 0.756 z-score.
With `TTAGATTACAGTATCGATTAGTGCTAG` the log fluorescence was 0.849 z-score.
`AAACAAATAAGCCTTACTTGGTGCTAG` gave a log fluorescence of 0.223 z-score.
With `GACGGTGTCCTTTCCCTGACGTGCTAG` the log fluorescence was -0.0834 z-score.
`TCAAGAGTAGCTTTCTGACTGTGCTAG` has a log fluorescence of -0.606 z-score.
For `GACGGTATCGGTATCTGGACGTGCTAG`, the log fluorescence was 1.23 z-score.
`TTAGAAGTGGGGTATCGATTAGTGCTA` gave a log fluorescence of -0.114 z-score.
For `GAAGGACTGGGTATCGGGACGTGCTAG`, the log fluorescence was -0.302 z-score.
`GACGATTCCAGTTTTGAGACGTGCTAG` has a log fluorescence of 1.18 z-score.
With `CTTGATTTTGGTCTTTCTGTGTGCTAG` the log fluorescence was -0.114 z-score.
`ATTTGTAAGTACATTAACTCGTGCTAG` gave a log fluorescence of 0.175 z-score.
